# Published values gathered from unrelated publications.
# Parts stem from different laboratories: compare values within a part only. Values joined by “and” are separate records of one study, mostly repeats; a detail may differ. Positions count from the first letter of the parent shown.
# Chain of UniProt Q9UKE5 (whole entry, looked up): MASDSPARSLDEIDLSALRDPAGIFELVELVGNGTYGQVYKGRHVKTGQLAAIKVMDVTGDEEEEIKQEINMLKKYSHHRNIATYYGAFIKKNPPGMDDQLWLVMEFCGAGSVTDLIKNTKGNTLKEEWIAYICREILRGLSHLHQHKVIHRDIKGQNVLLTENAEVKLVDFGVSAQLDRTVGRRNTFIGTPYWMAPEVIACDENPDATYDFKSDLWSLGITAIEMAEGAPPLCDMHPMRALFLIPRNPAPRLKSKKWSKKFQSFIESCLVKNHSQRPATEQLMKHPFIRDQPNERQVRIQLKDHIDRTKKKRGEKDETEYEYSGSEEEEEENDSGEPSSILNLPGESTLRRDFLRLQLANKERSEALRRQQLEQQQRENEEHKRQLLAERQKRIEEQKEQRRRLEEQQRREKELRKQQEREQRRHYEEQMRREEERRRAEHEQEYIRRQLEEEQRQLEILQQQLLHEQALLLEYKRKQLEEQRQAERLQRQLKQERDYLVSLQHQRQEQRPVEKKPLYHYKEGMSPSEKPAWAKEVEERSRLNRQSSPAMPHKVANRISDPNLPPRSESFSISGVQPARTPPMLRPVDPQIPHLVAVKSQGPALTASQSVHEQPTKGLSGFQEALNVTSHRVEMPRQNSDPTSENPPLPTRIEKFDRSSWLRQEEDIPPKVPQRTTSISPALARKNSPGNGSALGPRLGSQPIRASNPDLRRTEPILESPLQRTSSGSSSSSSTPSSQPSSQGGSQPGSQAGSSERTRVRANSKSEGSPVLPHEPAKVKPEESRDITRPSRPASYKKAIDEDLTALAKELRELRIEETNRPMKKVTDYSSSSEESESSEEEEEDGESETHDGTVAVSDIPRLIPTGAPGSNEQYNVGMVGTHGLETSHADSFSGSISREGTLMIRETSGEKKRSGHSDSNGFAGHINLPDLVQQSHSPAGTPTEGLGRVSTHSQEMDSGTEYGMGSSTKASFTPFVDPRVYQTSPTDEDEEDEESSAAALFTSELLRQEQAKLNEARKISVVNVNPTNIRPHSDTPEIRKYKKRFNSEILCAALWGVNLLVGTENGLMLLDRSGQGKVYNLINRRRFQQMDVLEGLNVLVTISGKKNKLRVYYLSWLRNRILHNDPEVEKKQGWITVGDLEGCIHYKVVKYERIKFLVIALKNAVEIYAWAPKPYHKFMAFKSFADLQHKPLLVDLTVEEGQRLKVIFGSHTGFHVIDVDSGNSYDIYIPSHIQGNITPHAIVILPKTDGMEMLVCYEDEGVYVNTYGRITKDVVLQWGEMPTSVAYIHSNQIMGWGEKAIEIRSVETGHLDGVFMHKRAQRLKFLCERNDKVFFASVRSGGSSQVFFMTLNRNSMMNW
# Chain of UniProt P20794 (whole entry, looked up): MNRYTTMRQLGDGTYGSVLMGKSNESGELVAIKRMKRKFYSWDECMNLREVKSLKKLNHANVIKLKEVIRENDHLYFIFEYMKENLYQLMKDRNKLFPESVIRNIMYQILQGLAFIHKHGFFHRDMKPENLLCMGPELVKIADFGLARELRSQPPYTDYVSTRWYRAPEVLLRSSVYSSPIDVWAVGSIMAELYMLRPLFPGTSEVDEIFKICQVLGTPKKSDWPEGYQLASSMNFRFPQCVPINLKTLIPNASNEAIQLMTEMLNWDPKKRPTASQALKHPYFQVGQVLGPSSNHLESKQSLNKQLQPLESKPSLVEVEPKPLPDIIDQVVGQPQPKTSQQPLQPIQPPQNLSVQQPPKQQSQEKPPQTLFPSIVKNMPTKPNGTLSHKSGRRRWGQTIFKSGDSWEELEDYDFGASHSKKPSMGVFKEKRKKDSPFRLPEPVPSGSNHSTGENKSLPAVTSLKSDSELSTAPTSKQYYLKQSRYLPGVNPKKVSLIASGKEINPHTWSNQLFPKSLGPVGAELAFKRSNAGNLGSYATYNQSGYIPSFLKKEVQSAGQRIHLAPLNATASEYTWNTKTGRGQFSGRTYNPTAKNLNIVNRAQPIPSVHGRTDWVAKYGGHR
# Chain of UniProt P10721 (whole entry, unmodified, looked up): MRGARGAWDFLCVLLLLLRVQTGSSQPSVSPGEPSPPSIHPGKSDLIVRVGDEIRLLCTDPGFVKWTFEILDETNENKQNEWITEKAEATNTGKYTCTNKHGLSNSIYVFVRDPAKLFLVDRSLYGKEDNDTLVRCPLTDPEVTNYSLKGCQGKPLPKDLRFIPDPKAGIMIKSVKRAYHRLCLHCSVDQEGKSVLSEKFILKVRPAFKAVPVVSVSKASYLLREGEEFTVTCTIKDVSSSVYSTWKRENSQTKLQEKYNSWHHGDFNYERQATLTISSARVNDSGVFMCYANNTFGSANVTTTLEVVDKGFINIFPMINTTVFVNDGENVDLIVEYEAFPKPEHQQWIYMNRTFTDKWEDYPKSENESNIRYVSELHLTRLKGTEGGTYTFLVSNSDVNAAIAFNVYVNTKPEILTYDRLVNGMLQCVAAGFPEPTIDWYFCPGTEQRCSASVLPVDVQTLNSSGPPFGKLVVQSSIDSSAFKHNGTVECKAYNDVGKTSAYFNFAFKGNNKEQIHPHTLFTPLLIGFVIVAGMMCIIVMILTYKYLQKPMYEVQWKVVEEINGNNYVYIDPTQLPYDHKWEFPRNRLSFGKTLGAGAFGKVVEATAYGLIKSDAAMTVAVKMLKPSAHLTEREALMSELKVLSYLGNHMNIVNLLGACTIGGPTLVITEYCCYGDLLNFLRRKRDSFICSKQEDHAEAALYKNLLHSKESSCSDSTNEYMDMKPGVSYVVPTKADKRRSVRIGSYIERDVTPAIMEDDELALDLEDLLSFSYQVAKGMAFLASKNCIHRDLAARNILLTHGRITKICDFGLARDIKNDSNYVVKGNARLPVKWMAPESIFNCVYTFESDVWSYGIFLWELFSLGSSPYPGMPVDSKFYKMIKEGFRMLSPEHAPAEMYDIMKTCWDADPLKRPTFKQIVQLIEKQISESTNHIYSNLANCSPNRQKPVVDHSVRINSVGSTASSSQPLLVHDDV
# Chain of UniProt Q6P2M8 (whole entry, looked up): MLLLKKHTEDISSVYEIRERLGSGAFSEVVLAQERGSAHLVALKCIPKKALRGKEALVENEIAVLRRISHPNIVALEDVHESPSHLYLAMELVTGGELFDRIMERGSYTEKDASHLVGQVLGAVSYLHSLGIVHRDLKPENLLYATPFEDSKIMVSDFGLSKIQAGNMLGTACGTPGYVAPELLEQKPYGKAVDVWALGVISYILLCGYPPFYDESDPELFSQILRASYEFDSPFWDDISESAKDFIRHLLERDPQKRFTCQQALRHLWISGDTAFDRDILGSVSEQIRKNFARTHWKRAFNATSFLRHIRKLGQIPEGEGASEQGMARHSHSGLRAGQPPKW
# Chain of UniProt Q9P2K8 (whole entry, unmodified, looked up): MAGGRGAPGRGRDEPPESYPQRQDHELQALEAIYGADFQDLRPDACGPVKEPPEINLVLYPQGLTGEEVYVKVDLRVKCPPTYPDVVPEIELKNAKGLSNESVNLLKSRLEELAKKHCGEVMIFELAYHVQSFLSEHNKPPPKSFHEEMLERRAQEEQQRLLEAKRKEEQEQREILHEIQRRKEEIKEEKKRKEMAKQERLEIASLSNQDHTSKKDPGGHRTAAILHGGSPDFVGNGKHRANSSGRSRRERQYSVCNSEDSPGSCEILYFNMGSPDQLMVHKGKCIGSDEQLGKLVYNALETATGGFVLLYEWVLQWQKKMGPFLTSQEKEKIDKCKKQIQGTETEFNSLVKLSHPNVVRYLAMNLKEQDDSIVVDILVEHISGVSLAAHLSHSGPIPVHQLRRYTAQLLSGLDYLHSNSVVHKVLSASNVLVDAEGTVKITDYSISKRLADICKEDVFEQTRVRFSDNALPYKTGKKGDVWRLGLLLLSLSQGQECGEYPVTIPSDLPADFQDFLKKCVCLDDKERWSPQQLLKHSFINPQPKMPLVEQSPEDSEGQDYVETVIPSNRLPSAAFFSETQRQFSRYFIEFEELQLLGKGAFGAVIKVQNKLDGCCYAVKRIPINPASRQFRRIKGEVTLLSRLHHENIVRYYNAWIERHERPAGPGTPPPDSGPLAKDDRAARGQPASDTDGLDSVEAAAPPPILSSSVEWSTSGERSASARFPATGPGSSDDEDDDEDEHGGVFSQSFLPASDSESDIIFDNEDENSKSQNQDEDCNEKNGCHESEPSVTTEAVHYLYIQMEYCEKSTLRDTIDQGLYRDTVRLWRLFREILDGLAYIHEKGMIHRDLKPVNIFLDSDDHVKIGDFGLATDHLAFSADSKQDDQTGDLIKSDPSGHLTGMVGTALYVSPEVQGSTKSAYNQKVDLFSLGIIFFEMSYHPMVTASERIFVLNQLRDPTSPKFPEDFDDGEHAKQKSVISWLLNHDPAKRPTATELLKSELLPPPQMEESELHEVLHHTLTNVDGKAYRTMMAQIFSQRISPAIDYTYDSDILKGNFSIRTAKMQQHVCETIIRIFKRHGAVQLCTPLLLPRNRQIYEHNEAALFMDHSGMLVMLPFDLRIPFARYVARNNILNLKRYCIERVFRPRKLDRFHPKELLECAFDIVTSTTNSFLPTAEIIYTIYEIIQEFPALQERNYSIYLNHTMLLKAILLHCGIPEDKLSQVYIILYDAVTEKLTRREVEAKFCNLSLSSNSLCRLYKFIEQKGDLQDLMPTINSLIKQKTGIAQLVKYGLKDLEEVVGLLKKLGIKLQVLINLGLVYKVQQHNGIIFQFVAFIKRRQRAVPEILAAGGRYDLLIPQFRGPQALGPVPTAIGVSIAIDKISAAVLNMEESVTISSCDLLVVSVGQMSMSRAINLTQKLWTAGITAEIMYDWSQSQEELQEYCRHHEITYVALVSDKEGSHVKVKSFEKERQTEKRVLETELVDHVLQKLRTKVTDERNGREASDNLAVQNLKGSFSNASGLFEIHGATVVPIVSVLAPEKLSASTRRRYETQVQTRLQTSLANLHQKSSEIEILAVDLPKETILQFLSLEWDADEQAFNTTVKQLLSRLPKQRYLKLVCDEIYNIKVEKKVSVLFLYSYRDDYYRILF

# Set 1 — target: CCNE1, cyclin fold, Cln2 fusion (human); method: yeast growth competition, sequencing; matrix: yeast; setting: strong parent motif; reference: not given; direction: higher = stronger binding; starting sequence: viral docking peptide; YKVKRRLVFGADD
Substitution,normalised enrichment score
L7A,-0.0361
G10N,5.9
V8C,5.74
A11S,6.15
D12C,5.23
R5C,0.845
K4F,1.28
R5S,0.162

# Set 2 — effect on: cell-free assay; method: competition with immobilised ligand; concentration: 1 µM
# SMILES: Cn1cncc1[C@](O)(COc1ccc(C#N)cc1-c1ccc(OC(F)(F)F)cc1)c1ccc(C#N)cc1
target,remaining binding
"Insulin receptor (INSR, Homo sapiens, UniProt P06213)",100%
"Calcium/calmodulin-dependent protein kinase type 1B (PNCK, Homo sapiens, UniProt Q6P2M8)",60%
"SRSF protein kinase 2 (SRPK2, Homo sapiens, UniProt P78362)",100%
"Serine/threonine-protein kinase MAK (MAK, Homo sapiens, UniProt P20794)",100%
"Phosphatidylinositol 4,5-bisphosphate 3-kinase catalytic subunit alpha isoform (PIK3CA, Homo sapiens, UniProt P42336, H1047Y)",77%
"Dual specificity mitogen-activated protein kinase kinase 7 (MAP2K7, Homo sapiens, UniProt O14733)",100%
"Serine/threonine-protein kinase 32B (STK32B, Homo sapiens, UniProt Q9NY57)",100%
"Tyrosine-protein kinase Fes/Fps (FES, Homo sapiens, UniProt P07332)",100%
"eIF-2-alpha kinase GCN2, C-terminal kinase domain (EIF2AK4, Homo sapiens, UniProt Q9P2K8, S808G)",99%
"SNF-related serine/threonine-protein kinase (SNRK, Homo sapiens, UniProt Q9NRH2)",100%
"Mast/stem cell growth factor receptor Kit (KIT, Homo sapiens, UniProt P10721, A829P)",79%
"Mitotic checkpoint serine/threonine-protein kinase BUB1 (BUB1, Homo sapiens, UniProt O43683)",85%
"ALK tyrosine kinase receptor (ALK, Homo sapiens, UniProt Q9UM73, L1196M)",100%
"TRAF2 and NCK-interacting protein kinase (TNIK, Homo sapiens, UniProt Q9UKE5)",81%
"Casein kinase II subunit alpha (CSNK2A1, Homo sapiens, UniProt P68400)",63%

# Set 3 — target: tungstate, free oxyanion; method: microfluidic competitive inhibition; matrix: in vitro, cell-free expressed; concentration: not given; direction: lower = stronger binding
# Setting: derived from inhibition constants, unchanged parent 2230 nM
# Starting sequence: PafA, mature enzyme, eGFP fusion (Elizabethkingia meningoseptica, UniProt Q9KJX5); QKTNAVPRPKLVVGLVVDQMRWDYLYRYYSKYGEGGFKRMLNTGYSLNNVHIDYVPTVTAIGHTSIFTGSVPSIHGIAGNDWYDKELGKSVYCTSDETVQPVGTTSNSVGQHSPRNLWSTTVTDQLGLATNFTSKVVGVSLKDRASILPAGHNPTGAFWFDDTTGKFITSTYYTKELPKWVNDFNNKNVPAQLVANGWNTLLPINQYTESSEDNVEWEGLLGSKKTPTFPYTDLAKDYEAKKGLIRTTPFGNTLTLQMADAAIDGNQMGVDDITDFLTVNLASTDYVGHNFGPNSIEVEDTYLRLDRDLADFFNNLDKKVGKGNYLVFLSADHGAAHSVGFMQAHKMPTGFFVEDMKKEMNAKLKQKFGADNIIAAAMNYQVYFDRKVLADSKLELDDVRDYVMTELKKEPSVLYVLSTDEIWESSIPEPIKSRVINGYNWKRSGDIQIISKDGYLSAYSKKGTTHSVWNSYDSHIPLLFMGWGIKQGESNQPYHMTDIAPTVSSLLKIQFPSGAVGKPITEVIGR
Substitution,oxyanion analog dissociation constant [µM]
K236V,2.5
D317G,1.4
S65G,3.06
T232V,2.48
D81G,3.37
G321V,2.1
L128G,2.03
T232G,2.24

# Mixed results
Structure (SMILES),target or system,assay,test system,setting,scale,endpoint,value
CCOc1ccccc1N1CCN(Cc2cc(F)ccc2F)CC1,,,"mouse, microsomes or S9","2 µM, 0.5 h",,remaining compound,37.9%
CCOc1ccc(Nc2c3c(nc4ccccc24)CCC3)cc1,HEK293,resazurin,,"3.32 µM, 10% serum",,cytotoxicity,19% and 10%
Cc1cc(Cl)cc(C(=O)NCCC2=NOC(CS(C)(=O)=O)C2)c1NC(=O)c1cc(Br)nn1-c1ncccc1Cl (centres unmarked),,,"mouse, microsomes or S9","2 µM, 0.5 h",,remaining compound,14.7%
CNC(=O)c1ccc(-c2cnn3ccc(C(=O)N(C)c4ccc(Cl)c(C(=O)OC)c4)cc23)cc1,Cryptosporidium parvum,time-kill,nanoluciferase-expressing,"3 nM, 8 h",reference: DMSO,luminescence,84.2% and 88.3%

# A few entries again (set 3):
Substitution,oxyanion analog dissociation constant [µM]
T232V,2.48
S65G,3.06
T232G,2.24
